# Published values gathered from unrelated publications.
# Lines come from different studies, so protocols differ. Numbers after ± are the reported error.
Compound,target or system,test,test system,setting,scale,quantity,result
Cc1ccc(CNC(=O)Cn2cc(CSc3nc4ccccc4[nH]3)nn2)cc1,MDA-MB-231,MTT,,250 ppm,,cytotoxicity,93.5%
Cn1cc(-c2ccc(-c3cncc(Cl)c3N3CCC4(CCNC4=O)CC3)cc2)cn1,COLO 205,"gene expression, microarray, item: NFE2L2 mRNA",,"concentration not given, 2 h",relative to: untreated cells,log2 fold change,2.1
O=c1[nH]nc(OCCCc2ccc(Cl)cc2)c(NCc2cccnc2)c1Br,HEK-293T,"RNA-seq GSEA, item: HALLMARK_KRAS_SIGNALING_DN",,concentration not given,direction not given,normalized enrichment score,-1.08
Nc1nc(C(F)(F)F)nc2c1nnn2C[C@H]1CN(Cc2nccs2)CCO1,SAOS-2,"activator, GloSensor",,"concentration not given, together with: PTH",,cAMP level,increased
Cc1ccc(Cn2cc(COc3cccc(Cc4cnc(NC(=O)CSc5nc(C)cc(C)n5)s4)c3)nn2)cc1,PC-3M-luc,"cell viability, MTS",,10 µM,,inhibition,27 ± 0.2%
CC1(C)CC2C1CC[C@]1(C)CCC3C(C(=O)O)CC(=O)O[C@@]32C1 (stereo partly shown),MYBPC3 mutant iPSC-derived cardiomyocytes,,,"20 µM, 24 h, primary screen",relative to: plate controls,MyBP-C/MYH ratio,140%
CCn1cc(-c2cc(Cn3ccoc3=N)cc3c2CCN([C@@H](C)c2cc(OC)ccn2)C3=O)c(C(F)(F)F)n1,SNU1079,cell growth,,120 h,,EC50,> 30 µM
Cl,human neutrophils,"sulfate exchange, substrate, sulfate influx",,external binding site,,Km,25.1 mM
CCCCc1oc2ccccc2c1C(=O)c1cc(I)c(OCCN(CC)CC)c(I)c1,human embryonic stem cell aggregates,microarray,,"4 µM, 120 h, fold change above 1.5",,up-regulated genes number,279
Clc1nc(NCc2ccco2)c2[nH]cnc2n1,FD iPSC-derived cardiomyocytes,"alternative splicing, RNA-seq, item: FSIP2 exon chr2(+):185799696-185809133",,unit not given,relative to: DMSO minus compound,ΔPSI,-0.488
C#C[C@@]1(O)[C@@H](CO)O[C@@H](n2ccc3c(N)ncnc32)[C@@H]1O,NCI60 panel,cell growth,,mean over panel,,TGI,-5.1 log M
Cc1cc(Nc2ncc(Cl)c(Nc3ccccc3S(=O)(=O)C(C)C)n2)c(OC(C)C)cc1C1CCNCC1,CLB-BAR,"phosphoproteomics LC-MS/MS, item: WDR62 phosphorylation",,"200 nM, 60 min",relative to: untreated,log2 fold change,-1.58
CC1(C)COc2ccc(F)cc2CN2c3nc4c(cnn4cc3OC[C@H]2C(F)F)C(=O)N1,NCI-H2228 (EML4-ALK variant 3),cell viability,,,,Emax,30.1%
COc1cnc2cccc(N3CCc4c(cc(Cn5ccnc5C)cc4-c4cn(C)nc4C(F)(F)F)C3=O)c2c1,SNU1066,cell growth,,120 h,,EC50,> 30 µM
CC(=O)c1nn(-c2ccccc2Cl)/c(=N/N=C(\C)c2ccc(NC(=O)c3ccccc3)cc2)s1,MCF7,MTT,,2.5 µM,,cytotoxicity,93.8%
Nc1ncnc2[nH]cnc12,MCF-10A,CellTiter-Glo,,concentration not given,"relative to: normalised, mean of replicates",viability,150%
COCCOC(=O)C1=C(C)NC(C)=C(C(=O)OC/C=C/c2ccccc2)C1c1cccc([N+](=O)[O-])c1 (stereo not shown),Toxoplasma gondii,parasite growth,"HFF, bradyzoite, glutamine-induced",,,EC50,6.53 µM
CC(C)NCC(O)c1ccc(O)c(O)c1 (stereo not shown),mouse ventricular cardiomyocytes,,,"dose not given, 0.104 s",,sarcomere length,1.7 µm
C=C1C(=O)O[C@H]2[C@H]1CC/C(C)=C/CC[C@@]1(C)O[C@@H]21,Toxoplasma gondii,"parasite growth, luciferase reporter","HFF, tachyzoite",72 h,,EC50,7.62 µM
CCOC(=O)/C=C\C(=O)OCC,HepG2,"high content imaging, item: cell count",,"24 h, distribution mode 1",,point of departure,22.4 µM
O=C(/C=C/C=C/C=C/C1CCCCC1)NC1=C[C@@](O)(/C=C/C=C/C=C/C(=O)NC2=C(O)CCC2=O)[C@@H]2O[C@@H]2C1=O,hcc1833,"cell growth, inhibitor, CellTiter-Glo luminescence",,78 h,relative to: day 0 cell count,GI50,19.6 µM
N#Cc1ccc(C[C@H](Nc2nnc(-c3cccc(Br)c3)s2)C(=O)N2CCc3ccccc32)cc1,human neutrophils,"calcium mobilization, agonist",,,,EC50,36.3 ± 6.7 µM

# For quick reference, copied from above:
Compound,target or system,test,test system,setting,scale,quantity,result
Nc1nc(C(F)(F)F)nc2c1nnn2C[C@H]1CN(Cc2nccs2)CCO1,SAOS-2,"activator, GloSensor",,"concentration not given, together with: PTH",,cAMP level,increased
